Published values from different studies.
Protocols differ between the studies behind these lines. ± marks the error that the study gave.
VIM-2: Metallo-beta-lactamase VIM-2 (VIM-2, Escherichia coli, UniProt Q5U7L7)
Chain of UniProt O43148 (whole entry, looked up): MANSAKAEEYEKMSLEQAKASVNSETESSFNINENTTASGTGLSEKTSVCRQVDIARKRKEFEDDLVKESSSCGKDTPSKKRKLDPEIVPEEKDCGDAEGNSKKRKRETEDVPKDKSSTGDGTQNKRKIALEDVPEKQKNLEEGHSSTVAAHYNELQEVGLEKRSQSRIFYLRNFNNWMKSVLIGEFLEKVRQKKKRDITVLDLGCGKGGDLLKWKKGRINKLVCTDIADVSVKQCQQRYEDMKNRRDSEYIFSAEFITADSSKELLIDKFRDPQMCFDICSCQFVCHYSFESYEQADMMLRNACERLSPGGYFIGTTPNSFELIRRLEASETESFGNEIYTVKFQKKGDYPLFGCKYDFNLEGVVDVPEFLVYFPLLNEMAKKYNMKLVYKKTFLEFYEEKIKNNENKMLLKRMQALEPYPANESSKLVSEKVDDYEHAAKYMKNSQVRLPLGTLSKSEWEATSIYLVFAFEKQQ
Chain of UniProt P41020 (whole entry, looked up): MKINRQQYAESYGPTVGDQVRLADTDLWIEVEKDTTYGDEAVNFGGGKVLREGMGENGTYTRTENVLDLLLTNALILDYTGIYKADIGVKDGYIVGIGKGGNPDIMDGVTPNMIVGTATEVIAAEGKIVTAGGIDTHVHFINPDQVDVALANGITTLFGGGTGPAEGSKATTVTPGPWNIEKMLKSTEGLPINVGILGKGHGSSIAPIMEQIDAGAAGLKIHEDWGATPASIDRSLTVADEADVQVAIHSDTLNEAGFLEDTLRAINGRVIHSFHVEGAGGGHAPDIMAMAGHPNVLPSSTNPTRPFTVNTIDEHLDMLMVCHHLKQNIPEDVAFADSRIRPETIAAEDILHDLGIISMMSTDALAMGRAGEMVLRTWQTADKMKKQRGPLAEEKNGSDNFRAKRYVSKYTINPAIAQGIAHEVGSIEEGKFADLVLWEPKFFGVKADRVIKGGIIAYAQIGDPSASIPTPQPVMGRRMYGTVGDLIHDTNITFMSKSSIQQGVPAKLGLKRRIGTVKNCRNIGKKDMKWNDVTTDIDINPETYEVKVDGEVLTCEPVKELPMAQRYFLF
Chain of UniProt P14902 (whole entry, looked up): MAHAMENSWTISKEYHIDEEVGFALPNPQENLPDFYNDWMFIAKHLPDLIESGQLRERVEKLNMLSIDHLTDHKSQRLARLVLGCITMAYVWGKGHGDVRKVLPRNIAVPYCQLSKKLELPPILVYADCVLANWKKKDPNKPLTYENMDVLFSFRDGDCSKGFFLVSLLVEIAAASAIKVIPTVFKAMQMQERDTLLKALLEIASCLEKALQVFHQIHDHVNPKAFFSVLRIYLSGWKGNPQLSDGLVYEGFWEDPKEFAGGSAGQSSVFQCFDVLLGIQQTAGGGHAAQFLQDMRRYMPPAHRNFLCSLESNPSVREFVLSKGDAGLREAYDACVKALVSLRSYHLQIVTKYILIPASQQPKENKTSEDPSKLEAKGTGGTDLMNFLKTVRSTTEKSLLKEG
Chain of UniProt Q96KQ7 (whole entry, looked up): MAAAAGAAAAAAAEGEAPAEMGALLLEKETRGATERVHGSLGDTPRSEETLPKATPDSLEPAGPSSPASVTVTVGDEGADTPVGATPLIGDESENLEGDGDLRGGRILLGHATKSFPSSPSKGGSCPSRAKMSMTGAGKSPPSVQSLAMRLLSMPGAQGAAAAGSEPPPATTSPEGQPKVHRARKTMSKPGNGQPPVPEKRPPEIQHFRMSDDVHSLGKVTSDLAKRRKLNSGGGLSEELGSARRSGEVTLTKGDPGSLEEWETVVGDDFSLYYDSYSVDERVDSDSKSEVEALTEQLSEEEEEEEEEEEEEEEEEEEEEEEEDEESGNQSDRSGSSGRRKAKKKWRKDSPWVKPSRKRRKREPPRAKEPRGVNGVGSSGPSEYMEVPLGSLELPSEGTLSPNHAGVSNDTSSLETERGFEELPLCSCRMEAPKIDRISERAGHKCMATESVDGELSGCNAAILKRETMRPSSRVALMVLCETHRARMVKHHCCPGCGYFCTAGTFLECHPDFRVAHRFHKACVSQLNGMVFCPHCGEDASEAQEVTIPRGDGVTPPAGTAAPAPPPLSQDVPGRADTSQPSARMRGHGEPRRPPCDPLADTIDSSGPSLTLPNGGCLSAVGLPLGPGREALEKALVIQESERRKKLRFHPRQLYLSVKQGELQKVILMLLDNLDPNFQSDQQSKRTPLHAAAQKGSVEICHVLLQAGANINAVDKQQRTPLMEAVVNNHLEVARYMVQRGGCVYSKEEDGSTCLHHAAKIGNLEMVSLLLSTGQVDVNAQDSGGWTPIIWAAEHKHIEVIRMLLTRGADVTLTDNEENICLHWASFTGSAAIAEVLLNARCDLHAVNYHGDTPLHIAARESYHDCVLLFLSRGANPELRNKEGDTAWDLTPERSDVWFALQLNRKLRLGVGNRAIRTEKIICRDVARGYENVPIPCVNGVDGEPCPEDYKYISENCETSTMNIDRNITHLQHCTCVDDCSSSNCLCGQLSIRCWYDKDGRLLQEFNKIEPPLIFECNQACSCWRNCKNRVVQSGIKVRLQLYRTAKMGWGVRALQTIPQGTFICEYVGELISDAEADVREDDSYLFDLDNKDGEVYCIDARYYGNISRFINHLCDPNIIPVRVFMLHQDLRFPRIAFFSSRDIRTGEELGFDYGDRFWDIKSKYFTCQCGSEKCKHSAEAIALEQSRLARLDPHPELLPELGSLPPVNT
Chain of UniProt O43353 (whole entry, looked up): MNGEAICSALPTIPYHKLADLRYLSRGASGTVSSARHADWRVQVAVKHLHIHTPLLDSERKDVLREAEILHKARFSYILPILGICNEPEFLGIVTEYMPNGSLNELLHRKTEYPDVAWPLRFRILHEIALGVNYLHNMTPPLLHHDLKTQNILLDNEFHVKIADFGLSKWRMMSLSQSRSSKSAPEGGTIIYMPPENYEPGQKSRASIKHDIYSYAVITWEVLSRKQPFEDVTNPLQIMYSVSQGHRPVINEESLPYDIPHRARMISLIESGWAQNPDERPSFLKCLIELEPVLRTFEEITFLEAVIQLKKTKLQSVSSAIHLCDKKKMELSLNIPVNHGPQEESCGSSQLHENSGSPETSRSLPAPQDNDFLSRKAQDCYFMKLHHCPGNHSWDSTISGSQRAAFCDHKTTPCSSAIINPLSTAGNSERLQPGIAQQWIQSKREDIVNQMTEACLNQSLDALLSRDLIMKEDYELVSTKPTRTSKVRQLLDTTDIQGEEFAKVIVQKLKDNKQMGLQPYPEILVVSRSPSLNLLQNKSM
Chain of UniProt P04228 (whole entry, looked up): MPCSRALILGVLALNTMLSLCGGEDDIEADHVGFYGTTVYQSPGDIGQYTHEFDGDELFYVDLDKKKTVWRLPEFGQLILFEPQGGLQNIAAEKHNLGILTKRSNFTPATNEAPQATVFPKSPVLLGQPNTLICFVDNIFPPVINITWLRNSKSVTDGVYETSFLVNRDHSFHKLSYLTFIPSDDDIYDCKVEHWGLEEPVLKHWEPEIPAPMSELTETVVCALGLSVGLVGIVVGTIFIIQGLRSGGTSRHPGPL
Chain of UniProt P30550 (whole entry, looked up): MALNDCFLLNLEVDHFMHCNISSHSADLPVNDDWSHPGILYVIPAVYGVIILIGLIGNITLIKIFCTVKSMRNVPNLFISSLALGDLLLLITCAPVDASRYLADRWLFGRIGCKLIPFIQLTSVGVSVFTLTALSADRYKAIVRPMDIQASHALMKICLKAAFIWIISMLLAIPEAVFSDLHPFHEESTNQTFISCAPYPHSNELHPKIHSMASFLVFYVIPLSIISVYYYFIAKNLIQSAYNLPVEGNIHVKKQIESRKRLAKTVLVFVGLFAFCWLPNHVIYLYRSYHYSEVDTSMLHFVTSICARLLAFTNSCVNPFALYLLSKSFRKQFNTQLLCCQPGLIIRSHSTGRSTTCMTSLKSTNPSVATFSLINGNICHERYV
Chain of UniProt A6TAP2 (whole entry, looked up): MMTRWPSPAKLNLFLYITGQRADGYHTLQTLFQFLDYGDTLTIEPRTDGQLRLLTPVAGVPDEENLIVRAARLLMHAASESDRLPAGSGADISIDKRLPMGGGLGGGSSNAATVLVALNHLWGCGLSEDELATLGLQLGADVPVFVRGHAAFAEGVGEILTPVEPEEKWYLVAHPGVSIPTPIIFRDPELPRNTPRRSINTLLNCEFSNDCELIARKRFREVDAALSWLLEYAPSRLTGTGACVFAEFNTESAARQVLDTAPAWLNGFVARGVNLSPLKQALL
Chain of UniProt O14791 (whole entry, unmodified, looked up): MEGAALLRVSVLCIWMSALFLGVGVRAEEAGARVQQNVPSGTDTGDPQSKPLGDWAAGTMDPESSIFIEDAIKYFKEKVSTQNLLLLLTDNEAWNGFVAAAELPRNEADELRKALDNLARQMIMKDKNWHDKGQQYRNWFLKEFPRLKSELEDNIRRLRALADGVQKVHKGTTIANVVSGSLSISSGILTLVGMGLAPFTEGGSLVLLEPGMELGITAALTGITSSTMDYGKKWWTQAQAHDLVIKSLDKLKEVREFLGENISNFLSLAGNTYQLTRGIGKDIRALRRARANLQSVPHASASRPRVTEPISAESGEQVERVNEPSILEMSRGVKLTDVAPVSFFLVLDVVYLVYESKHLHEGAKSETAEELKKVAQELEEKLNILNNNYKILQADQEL
Chain of UniProt Q04828 (whole entry, looked up): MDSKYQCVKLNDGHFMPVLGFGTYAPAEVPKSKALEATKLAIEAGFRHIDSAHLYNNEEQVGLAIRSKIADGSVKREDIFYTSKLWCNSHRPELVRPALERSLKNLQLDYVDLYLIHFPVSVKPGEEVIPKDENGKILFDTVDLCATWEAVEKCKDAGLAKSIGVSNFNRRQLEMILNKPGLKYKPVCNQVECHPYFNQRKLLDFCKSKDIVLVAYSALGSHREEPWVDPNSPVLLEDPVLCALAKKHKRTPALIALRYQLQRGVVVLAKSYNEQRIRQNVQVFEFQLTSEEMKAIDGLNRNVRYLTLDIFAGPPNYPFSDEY

SMILES | target | assay | system | conditions | IC50 [nM]
CSCC[C@H](NC(=O)[C@H](C)NC(=O)[C@H](C)NC(=O)[C@H](C)N)C(=O)N[C@@H](CCCCN)C(=O)N[C@@H](CCCNC(=N)N)C(=O)N[C@@H](Cc1c[nH]cn1)C(=O)NCC(=O)N[C@@H](CC(C)C)C(N)=O | MHC class II I-A g7 (Mus musculus, UniProt P04228+Q31135) | peptide binding, competitor, competition ELISA | – | at least 24 h, pH 7.0, room temperature, added: biotinylated HEL 10-23 200 nM | > 50000
CN(Cc1ccc(C(C)(C)C)cc1)Cc1cccc2ccccc12 | mRNA cap guanine-N(7) methyltransferase (RNMT, Homo sapiens, UniProt O43148) | enzyme activity, inhibitor | – | – | 1280
CC[C@H](C)[C@H](NC(=O)[C@@H]1CCCN1C(=O)CNC(=O)[C@H](CC(N)=O)NC(=O)CNC(=O)[C@@H]1CC(=O)O[C@H](C)[C@H](NC(=O)[C@H](Cc2ccccc2)NC(=O)[C@@H](NC(=O)[C@H](CCCCN)NC(=O)CNC(=O)[C@H](CC(=O)O)NC(=O)CNC(=O)[C@@H](NC(=O)CNC(=O)[C@H](CC(=O)O)NC(=O)[C@@H]2CCC(=O)O[C@H](C)[C@H](NC(=O)[C@@H](NC(=O)[C@H](CC(C)C)NC(=O)[C@H](CCCCN)NC(=O)[C@H](Cc3ccccc3)NC(=O)[C@H](CC(=O)O)NC(=O)CNC(=O)[C@H](CCCCN)NC(=O)[C@H](CC(C)C)NC(=O)[C@H](CO)NC(=O)CN)C(C)C)C(=O)N[C@@H](CCSC)C(=O)N[C@@H](CCCCN)C(=O)N[C@@H](C(C)C)C(=O)N3CCC[C@H]3C(=O)N2)C(C)C)C(C)C)C(=O)N[C@@H]2C(=O)N[C@@H](C)C(=O)N[C@@H](CC(C)C)C(=O)NCC(=O)N[C@@H](CCC(=O)O[C@@H]2C)C(=O)N1)C(=O)N[C@@H](Cc1ccc(O)cc1)C(=O)N[C@@H]1C(=O)N[C@@H]2C(=O)N[C@@H](CCC(N)=O)C(=O)N[C@@H](C)C(=O)N[C@@H](C(C)C)C(=O)NCC(=O)N[C@@H](CCC(=O)O[C@@H]2C)C(=O)N[C@H](C(=O)NCC(=O)NCC(=O)N[C@@H](CC(=O)O)C(=O)N[C@@H](CC(C)C)C(=O)N2CCC[C@H]2C(=O)N2CCC[C@H]2C(=O)N[C@@H](CC(C)C)C(=O)N[C@@H](Cc2ccccc2)C(=O)O)CCC(=O)O[C@@H]1C | Neutrophil elastase (ELANE, Homo sapiens, UniProt P08246) | enzyme activity, inhibitor | – | – | 12900
O=C(NCCN1CCC2(CC1)C(=O)NCN2Cc1ccccn1)c1ccc2ccccc2c1 | Phospholipase D1 (Homo sapiens, UniProt Q13393) | enzyme activity, inhibitor | – | – | 2650
CNCP(=O)(O)O | Urease subunit alpha (Sporosarcina pasteurii, UniProt P41020) | enzyme activity, inhibitor, indophenol colorimetric | – | 20 min, pH 7.0, 37 °C, added: 50 mM urea | 228000 ± 15600
Nc1ccn(CC2COP(=O)(OCCCCCCCCCCCCNC(=O)CCCCC3SCC4NC(=O)NC43)CO2)c(=O)n1 (mixture of isomers) | Sodium-dependent multivitamin transporter (Canis lupus familiaris, UniProt A0A8I3MY61) | biotin uptake | MDCK-MDR1 | added: [3H]-biotin | 2900 ± 70
CC(C)C[C@@H]1NC(=O)[C@H](C(C)C)NC(=O)[C@H](C)NC(=O)[C@H](Cc2ccc(O)cc2)NC(=O)[C@H](CCC(N)=O)NC(=O)[C@H](CC(C)C)NC(=O)[C@@H](Cc2ccc(O)cc2)NC(=O)CSC[C@@H](C(N)=O)NC(=O)[C@H](CCC(=O)O)NC(=O)[C@H](CCCNC(=N)N)NC(=O)[C@H](CCCNC(=N)N)NC(=O)[C@H](CCCCN)NC(=O)[C@H](Cc2c[nH]cn2)NC(=O)[C@H](CCCNC(=N)N)NC1=O | Cathepsin B (CTSB, Homo sapiens, UniProt P07858) | enzyme activity, inhibitor | – | – | > 10000
C1=C(c2cc3c(Nc4ccc5scnc5c4)ncnc3s2)CCNC1 | Receptor-interacting serine/threonine-protein kinase 2 (RIPK2, Homo sapiens, UniProt O43353) | enzyme activity, inhibitor | – | – | 6
Nc1ncc(Br)cc1C(=O)N1CCCCC1 | 4-diphosphocytidyl-2-C-methyl-D-erythritol kinase (ispE, Klebsiella pneumoniae subsp. pneumoniae, UniProt A6TAP2) | enzyme activity, PK/LDH coupled spectrophotometric | – | – | > 500000
O=C1C=CC(=O)C=C1 | mRNA cap guanine-N(7) methyltransferase, with RAM (RNMT, Homo sapiens, UniProt O43148) | N7-methyltransferase activity, inhibitor, Py-FLINT | – | RNMT-RAM complex, added: SAM 20 µM | 30600 ± 4300
NC(=O)CN(CC(=O)O)CC(=O)O | VIM-2 | enzyme activity, inhibitor, fluorescence | – | – | ~25000
CCn1c(-c2ccc(OC)cc2)c(-c2ccc(OC)cc2)n(CC)c1=[Se+][Au-][P+](CC)(CC)CC.Cl | thioredoxin reductase (Acinetobacter baumannii, UniProt A0A0G4QN87) | thioredoxin reductase activity | carbapenem-resistant | 2 h | 1580
CCCCCCCCCCCCCCCc1ccc(COP(O)(O)=S)cc1 | Autotaxin (ENPP2, Homo sapiens, UniProt Q13822) | enzyme activity, inhibitor | – | added: FS-3 1 µM | 1540
CNc1nc(SC)nc2ccccc12 | Cytochrome P450 3A4 (CYP3A4, Homo sapiens, UniProt P08684) | enzyme activity, inhibitor | – | added: VG substrate | 17000
CSCC[C@H](NC(=O)[C@H](Cc1ccccc1)NC(=O)[C@H](Cc1c[nH]cn1)NC(=O)CNC(=O)[C@@H](NC(=O)[C@H](C)NC(=O)[C@H](Cc1c[nH]c2ccccc12)NC(=O)[C@H](CCC(N)=O)NC(=O)[C@@H]1CCC(=O)N1)C(C)C)C(N)=O | Gastrin-releasing peptide receptor (GRPR, Homo sapiens, UniProt P30550) | ligand displacement in cells, radioligand | – | – | 2.69
C[C@H](CS)C(=O)Nc1cccc(-n2nccn2)c1 | VIM-2 | enzyme activity, inhibitor, fluorescence | – | with preincubation | 107
O=C(O)c1cc2ccccc2n1Cc1ccccc1 | Indoleamine 2,3-dioxygenase 1 (IDO1, Homo sapiens, UniProt P14902) | inhibitor | – | – | > 500000
O=C(CCCCCCC(=O)Nc1cccc(N=Nc2ccccc2)c1)NO | Histone deacetylase 2 (HDAC2, Homo sapiens, UniProt Q92769) | enzyme activity, inhibitor | – | cis isomer, irradiated | 56 ± 12
CC(C)C[C@@H]1NC(=O)[C@H](CCCNC(=N)N)NC(=O)[C@H](CCCCN)NC(=O)[C@H](CC(=O)O)NC(=O)[C@H](CCCCN)NC(=O)[C@@H](CO)NC1=O | Matrix metalloproteinase-14 (MMP14, Homo sapiens, UniProt P50281) | enzyme activity, inhibitor, fluorescence | – | – | > 10000
CC[C@H](C)[C@H](N)C(=O)N[C@@H](CO)C(=O)N[C@@H](CCC(N)=O)C(=O)N[C@H](C(=O)N[C@@H](CC(N)=O)C(=O)N[C@@H](CCC(=O)O)C(=O)N[C@@H](CCCCN)C(=O)N[C@H](C(=O)N[C@@H](CC(N)=O)C(=O)N[C@@H](CCC(N)=O)C(=O)N[C@@H](CO)C(=O)N[C@@H](CC(C)C)C(=O)N[C@@H](C)C(=O)N[C@@H](Cc1ccccc1)C(=O)N[C@H](C(=O)N[C@@H](CCCNC(=N)N)C(=O)N[C@@H](CCCCN)C(=O)N[C@@H](CO)C(=O)N[C@@H](CC(=O)O)C(=O)N[C@@H](CCC(=O)O)C(=O)N(CCOC)CC(=O)N(CCOC)CC(=O)N(CCOC)CC(=O)N(CCOC)CC(=O)N(CCOC)CC(N)=O)[C@@H](C)CC)[C@@H](C)CC)C(C)C | hRSV fusion protein 5-helix bundle | binding, fluorescence polarization | – | added: Fl-C35 tracer 5 nM | > 200000
CC(C)(C)c1ccc(NC(=O)NCCC[C@H](CNCc2ccccc2)C[C@H]2O[C@@H](n3cnc4c(N)ncnc43)[C@H](O)[C@@H]2O)cc1 | Histone-lysine N-methyltransferase EHMT2 (EHMT2, Homo sapiens, UniProt Q96KQ7) | enzyme activity, inhibitor, radiometric | – | – | > 50000
COCC(=O)NCCSc1c(-c2ccc(Br)cc2)[nH]c2ccccc12 | Apolipoprotein L1 (Homo sapiens, UniProt O14791, I384M/M228I/R255K/S342G) | ion channel function, inhibitor, thallium flux | HEK293 tet-inducible Apolipoprotein L1 | – | 580
CC[C@H](C)[C@@H]1NC(=O)[C@H](Cc2ccccc2)NC(=O)[C@H](C)NC(=O)[C@@H](NC(=O)[C@@H](NC(=O)[C@H](CO)NC(=O)[C@@H](N)Cc2ccc(O)cc2)[C@@H](C)O)CSC(=O)[C@H](CCSC)NC1=O | Receptor-histidine kinase AgrC (agrC, Staphylococcus aureus, UniProt O07911) | – | – | – | 0.214
C[C@]12CC[C@@H]3c4cc(Cl)c(O)c(Cl)c4CC[C@H]3[C@@H]1CCC2=O | Aldo-keto reductase family 1 member C1 (AKR1C1, Homo sapiens, UniProt Q04828) | enzyme activity, inhibitor, absorbance | – | pH 9 | 1600

A few entries again:
SMILES | target | assay | system | conditions | IC50 [nM]
O=C(CCCCCCC(=O)Nc1cccc(N=Nc2ccccc2)c1)NO | Histone deacetylase 2 (HDAC2, Homo sapiens, UniProt Q92769) | enzyme activity, inhibitor | – | cis isomer, irradiated | 56 ± 12
CC(C)C[C@@H]1NC(=O)[C@H](CCCNC(=N)N)NC(=O)[C@H](CCCCN)NC(=O)[C@H](CC(=O)O)NC(=O)[C@H](CCCCN)NC(=O)[C@@H](CO)NC1=O | Matrix metalloproteinase-14 (MMP14, Homo sapiens, UniProt P50281) | enzyme activity, inhibitor, fluorescence | – | – | > 10000
CC[C@H](C)[C@H](N)C(=O)N[C@@H](CO)C(=O)N[C@@H](CCC(N)=O)C(=O)N[C@H](C(=O)N[C@@H](CC(N)=O)C(=O)N[C@@H](CCC(=O)O)C(=O)N[C@@H](CCCCN)C(=O)N[C@H](C(=O)N[C@@H](CC(N)=O)C(=O)N[C@@H](CCC(N)=O)C(=O)N[C@@H](CO)C(=O)N[C@@H](CC(C)C)C(=O)N[C@@H](C)C(=O)N[C@@H](Cc1ccccc1)C(=O)N[C@H](C(=O)N[C@@H](CCCNC(=N)N)C(=O)N[C@@H](CCCCN)C(=O)N[C@@H](CO)C(=O)N[C@@H](CC(=O)O)C(=O)N[C@@H](CCC(=O)O)C(=O)N(CCOC)CC(=O)N(CCOC)CC(=O)N(CCOC)CC(=O)N(CCOC)CC(=O)N(CCOC)CC(N)=O)[C@@H](C)CC)[C@@H](C)CC)C(C)C | hRSV fusion protein 5-helix bundle | binding, fluorescence polarization | – | added: Fl-C35 tracer 5 nM | > 200000
CC(C)(C)c1ccc(NC(=O)NCCC[C@H](CNCc2ccccc2)C[C@H]2O[C@@H](n3cnc4c(N)ncnc43)[C@H](O)[C@@H]2O)cc1 | Histone-lysine N-methyltransferase EHMT2 (EHMT2, Homo sapiens, UniProt Q96KQ7) | enzyme activity, inhibitor, radiometric | – | – | > 50000
